Measured values pooled from the literature.
Lines come from different studies, so protocols differ. ± marks the error that the study gave.
USP3 ZnF-UBD domain: Ubiquitin carboxyl-terminal hydrolase 3, ZnF-UBD domain (USP3, Homo sapiens, UniProt Q9Y6I4)
Sequence of UniProt Q9Y6I4 (whole entry, looked up): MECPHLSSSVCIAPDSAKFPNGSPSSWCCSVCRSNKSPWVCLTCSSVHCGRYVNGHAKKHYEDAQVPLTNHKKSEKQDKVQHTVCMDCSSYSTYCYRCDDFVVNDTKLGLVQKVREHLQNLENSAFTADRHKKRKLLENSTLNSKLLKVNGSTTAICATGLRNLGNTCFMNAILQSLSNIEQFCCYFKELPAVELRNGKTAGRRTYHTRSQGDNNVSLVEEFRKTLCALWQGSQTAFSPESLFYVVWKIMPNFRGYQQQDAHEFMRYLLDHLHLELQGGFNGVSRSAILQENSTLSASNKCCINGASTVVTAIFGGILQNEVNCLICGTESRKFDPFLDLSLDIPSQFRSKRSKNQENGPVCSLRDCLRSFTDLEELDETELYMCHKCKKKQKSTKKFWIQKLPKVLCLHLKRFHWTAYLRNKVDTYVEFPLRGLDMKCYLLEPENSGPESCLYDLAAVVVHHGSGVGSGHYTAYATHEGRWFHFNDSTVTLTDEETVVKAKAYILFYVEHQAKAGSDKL
LGB: Beta-lactoglobulin (LGB, Bos taurus, UniProt P02754)
Sequence of UniProt P02754 (whole entry, looked up): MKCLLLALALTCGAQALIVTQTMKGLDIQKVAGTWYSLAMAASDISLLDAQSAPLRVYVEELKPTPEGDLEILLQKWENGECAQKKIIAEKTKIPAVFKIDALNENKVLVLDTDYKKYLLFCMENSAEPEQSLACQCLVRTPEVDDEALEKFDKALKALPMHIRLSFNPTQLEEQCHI
DNA repair protein REV1 C-terminal domain: DNA repair protein REV1, C-terminal domain (Homo sapiens, UniProt Q9UBZ9)
Sequence of UniProt Q9UBZ9 (whole entry, looked up): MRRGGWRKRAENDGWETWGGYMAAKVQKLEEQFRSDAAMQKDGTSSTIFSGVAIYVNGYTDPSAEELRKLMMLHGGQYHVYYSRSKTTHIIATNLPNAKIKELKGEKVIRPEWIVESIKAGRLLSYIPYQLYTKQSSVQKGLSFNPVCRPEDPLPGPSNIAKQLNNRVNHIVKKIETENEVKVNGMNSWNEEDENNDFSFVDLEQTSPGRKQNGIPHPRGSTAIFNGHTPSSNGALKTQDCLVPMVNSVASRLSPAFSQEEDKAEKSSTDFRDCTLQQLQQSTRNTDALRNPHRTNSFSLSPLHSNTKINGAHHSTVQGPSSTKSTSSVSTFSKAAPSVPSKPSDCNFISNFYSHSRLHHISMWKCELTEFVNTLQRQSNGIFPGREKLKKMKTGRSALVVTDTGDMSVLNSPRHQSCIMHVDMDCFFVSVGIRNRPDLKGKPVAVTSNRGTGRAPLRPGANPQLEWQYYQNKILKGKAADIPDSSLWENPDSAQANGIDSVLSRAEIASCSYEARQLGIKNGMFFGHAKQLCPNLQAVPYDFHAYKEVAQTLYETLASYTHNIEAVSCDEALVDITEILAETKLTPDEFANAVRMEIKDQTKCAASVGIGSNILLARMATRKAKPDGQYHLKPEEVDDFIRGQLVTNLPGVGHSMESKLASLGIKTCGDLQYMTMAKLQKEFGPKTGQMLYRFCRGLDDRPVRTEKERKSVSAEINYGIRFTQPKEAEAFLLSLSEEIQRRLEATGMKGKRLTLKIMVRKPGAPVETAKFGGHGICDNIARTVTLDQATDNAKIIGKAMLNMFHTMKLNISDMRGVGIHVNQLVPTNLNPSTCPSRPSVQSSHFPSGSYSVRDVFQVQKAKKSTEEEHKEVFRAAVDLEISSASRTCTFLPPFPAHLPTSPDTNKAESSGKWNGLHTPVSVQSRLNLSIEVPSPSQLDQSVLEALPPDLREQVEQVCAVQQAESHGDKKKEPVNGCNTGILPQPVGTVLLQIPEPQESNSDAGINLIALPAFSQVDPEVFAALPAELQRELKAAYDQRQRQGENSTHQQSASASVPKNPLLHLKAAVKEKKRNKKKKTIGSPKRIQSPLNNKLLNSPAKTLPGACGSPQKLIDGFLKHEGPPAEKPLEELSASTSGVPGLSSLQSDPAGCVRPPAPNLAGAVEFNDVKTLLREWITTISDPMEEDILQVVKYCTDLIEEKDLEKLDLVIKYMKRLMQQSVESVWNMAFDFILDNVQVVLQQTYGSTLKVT
Sequence of UniProt Q9FKW4 (whole entry, looked up): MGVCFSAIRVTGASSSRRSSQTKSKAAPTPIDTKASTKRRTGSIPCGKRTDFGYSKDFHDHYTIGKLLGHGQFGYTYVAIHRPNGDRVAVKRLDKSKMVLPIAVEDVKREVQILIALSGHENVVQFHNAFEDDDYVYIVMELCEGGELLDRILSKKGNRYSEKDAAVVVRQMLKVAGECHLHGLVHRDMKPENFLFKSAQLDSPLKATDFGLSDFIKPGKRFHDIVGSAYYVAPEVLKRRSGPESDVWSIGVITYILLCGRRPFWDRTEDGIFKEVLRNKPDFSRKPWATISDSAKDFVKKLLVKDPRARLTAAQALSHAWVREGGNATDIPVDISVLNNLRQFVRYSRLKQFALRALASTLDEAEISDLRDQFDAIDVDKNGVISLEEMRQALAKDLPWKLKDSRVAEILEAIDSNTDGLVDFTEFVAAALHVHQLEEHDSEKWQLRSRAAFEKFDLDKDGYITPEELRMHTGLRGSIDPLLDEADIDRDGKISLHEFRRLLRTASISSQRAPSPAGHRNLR
Sequence of UniProt P21169 (whole entry, looked up): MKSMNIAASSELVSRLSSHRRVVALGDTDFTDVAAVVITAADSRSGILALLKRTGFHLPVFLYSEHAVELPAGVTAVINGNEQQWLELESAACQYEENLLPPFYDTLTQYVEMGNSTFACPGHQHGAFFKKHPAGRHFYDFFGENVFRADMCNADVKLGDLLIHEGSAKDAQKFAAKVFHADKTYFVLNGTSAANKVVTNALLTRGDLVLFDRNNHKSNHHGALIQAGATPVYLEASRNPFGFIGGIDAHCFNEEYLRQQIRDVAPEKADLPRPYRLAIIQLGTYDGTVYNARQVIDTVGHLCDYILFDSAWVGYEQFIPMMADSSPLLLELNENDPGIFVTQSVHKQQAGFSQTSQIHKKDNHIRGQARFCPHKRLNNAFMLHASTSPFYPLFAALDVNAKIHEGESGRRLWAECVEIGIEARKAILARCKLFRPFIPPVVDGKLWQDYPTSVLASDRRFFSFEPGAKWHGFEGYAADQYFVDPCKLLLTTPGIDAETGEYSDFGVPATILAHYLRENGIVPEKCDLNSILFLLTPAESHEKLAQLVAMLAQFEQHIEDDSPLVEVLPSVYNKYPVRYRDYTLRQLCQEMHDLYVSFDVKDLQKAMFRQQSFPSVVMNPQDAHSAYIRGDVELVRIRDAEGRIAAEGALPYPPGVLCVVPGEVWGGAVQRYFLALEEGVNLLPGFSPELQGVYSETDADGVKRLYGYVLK
Sequence of UniProt P98170 (whole entry, looked up): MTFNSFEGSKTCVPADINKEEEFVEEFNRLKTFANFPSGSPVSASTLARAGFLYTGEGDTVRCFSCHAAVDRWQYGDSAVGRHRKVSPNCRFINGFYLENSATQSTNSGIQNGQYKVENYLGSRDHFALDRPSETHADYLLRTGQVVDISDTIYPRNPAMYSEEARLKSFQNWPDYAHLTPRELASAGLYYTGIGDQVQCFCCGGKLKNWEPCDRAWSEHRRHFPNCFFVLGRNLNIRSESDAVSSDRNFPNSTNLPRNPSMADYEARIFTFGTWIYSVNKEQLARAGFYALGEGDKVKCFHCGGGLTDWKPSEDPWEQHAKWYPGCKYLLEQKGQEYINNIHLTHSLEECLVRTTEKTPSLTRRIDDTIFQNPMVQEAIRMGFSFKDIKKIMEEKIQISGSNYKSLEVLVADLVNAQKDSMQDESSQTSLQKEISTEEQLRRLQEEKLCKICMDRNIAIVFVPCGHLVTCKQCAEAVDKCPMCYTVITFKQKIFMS
Sequence of UniProt P05067 (whole entry, looked up): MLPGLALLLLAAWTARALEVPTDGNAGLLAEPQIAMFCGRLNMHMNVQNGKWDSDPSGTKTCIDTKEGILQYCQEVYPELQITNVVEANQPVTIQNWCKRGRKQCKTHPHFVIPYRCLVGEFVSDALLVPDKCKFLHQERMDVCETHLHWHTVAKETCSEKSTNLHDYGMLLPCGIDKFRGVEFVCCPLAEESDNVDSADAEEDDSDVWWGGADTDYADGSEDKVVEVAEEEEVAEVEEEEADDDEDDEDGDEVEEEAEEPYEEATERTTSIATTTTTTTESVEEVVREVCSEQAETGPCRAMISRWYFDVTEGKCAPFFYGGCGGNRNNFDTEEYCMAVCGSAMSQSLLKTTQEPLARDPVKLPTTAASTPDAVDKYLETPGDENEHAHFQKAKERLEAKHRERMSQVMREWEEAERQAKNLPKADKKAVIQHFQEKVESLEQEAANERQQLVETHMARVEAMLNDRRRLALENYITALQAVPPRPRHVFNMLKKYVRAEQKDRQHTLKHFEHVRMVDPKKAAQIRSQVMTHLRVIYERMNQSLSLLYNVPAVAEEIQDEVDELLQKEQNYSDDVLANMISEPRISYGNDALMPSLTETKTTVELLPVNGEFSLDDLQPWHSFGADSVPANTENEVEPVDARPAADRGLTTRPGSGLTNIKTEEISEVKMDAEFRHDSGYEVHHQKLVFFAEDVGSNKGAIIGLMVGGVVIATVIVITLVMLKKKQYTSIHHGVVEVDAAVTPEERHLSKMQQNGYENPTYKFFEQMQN
Sequence of UniProt P46108 (whole entry, looked up): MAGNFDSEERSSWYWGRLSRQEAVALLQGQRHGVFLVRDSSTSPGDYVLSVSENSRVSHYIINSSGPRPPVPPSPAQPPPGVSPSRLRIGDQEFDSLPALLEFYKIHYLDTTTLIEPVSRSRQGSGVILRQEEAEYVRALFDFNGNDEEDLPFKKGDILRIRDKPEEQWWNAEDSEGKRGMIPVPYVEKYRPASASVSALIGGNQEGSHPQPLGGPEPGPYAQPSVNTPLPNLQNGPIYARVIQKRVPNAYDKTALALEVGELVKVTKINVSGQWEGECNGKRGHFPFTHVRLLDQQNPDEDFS
Sequence of UniProt P0A9M2 (whole entry, looked up): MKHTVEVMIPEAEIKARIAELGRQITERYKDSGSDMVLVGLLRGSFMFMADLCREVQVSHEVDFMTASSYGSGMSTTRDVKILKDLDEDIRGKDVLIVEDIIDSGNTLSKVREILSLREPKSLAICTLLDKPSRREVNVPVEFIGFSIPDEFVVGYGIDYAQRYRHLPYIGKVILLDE

C[C@H](N)C(=O)N[C@@H](CCCCNC(=O)CCCCC(=O)NCCCC[C@H](NC(=O)[C@H](C)N)C(=O)N1CCC[C@H]1C(=O)N[C@@H](Cc1ccccc1)C(=O)N[C@H](CCCCNC(=O)c1ccc2c(c1)C(=O)OC21c2ccc(O)cc2Oc2cc(O)ccc21)C(N)=O)C(=O)N1CCC[C@H]1C(=O)N[C@@H](Cc1ccccc1)C(N)=O — Kd (E3 ubiquitin-protein ligase XIAP, BIR3 domain (XIAP, Homo sapiens, UniProt P98170); binding, fluorescence polarisation; together with: tracer 2 nM): 0.0044 ± 0.0007 µM
OC1OC[C@H](O)[C@H](O)[C@H]1O (mixture of isomers) — Kd (uncharacterized protein (Pelagibacter ubique, UniProt Q4FMK2); isothermal titration calorimetry; Candidatus Pelagibacter ubique; one-set-of-sites model): 1.31 ± 0.09 µM
Cn1cncc1C1=CN(c2ncnc3[nH]cnc23)CC[S+]1[O-] (stereo not shown) — Kd (PRKACA (Homo sapiens, UniProt P17612); binding): 317 ± 283 µM
O=C(O)CCC(=O)c1cccs1 — Kd (USP3 ZnF-UBD domain): 195 µM
Nc1ncnc2c1ncn2[C@@H]1O[C@H](COP(=O)(O)OP(=O)(O)NP(=O)(O)O)[C@@H](O)[C@H]1O — Kd (Cell cycle histidine kinase CckA, CA domain (Caulobacter vibrioides, UniProt Q9X688); isothermal titration calorimetry; Caulobacter crescentus; 12 °C, together with: c-di-GMP 100 µM): 43 µM
O=C(O)CCc1ccccc1 — Kd (USP3 ZnF-UBD domain): 178 µM
CC(C)=CCC/C(C)=C/C=C/C(C)=C/C=C/C(C)=C/C=C/C=C(C)/C=C/C=C(C)/C=C/C=C(\C)CCC=C(C)C — Kd (LGB; binding, fluorescence quenching; PBS; 30 min, 298 K): 0.0147 µM
NC[C@@H]1O[C@H](O[C@H]2[C@@H](O)[C@H](O[C@@H]3[C@@H](O)[C@H](N)C[C@H](N)[C@H]3O[C@H]3O[C@H](CO)[C@@H](O)[C@H](O)[C@H]3N)O[C@@H]2CO)[C@H](N)[C@@H](O)[C@@H]1O — Kd (de novo protein S23; binding, NMR): 15 ± 14 µM
CCc1nc2cc3ccccc3cc2cc1C(=O)N[C@@H](C/C=C\C[C@H](NC(=O)c1cc2cc3ccccc3cc2nc1CC)C(=O)N1CCC[C@H]1C(=O)N[C@@H](Cc1ccccc1)C(=O)NCCCN)C(=O)N1CCC[C@H]1C(=O)N[C@@H](Cc1ccccc1)C(=O)NCCCN — Kd (HIV-1 frameshift RNA upper stem-loop; surface plasmon resonance): 0.0553 µM
CCCCCCCCCCCC1=C(O)C(=O)C=C(O)C1=O — Kd (de novo protein S23; NMR): ~1000 µM
CN(C)C(=N)N=C(N)N — Kd (Calcium-dependent protein kinase 28 (CPK28, Arabidopsis thaliana, UniProt Q9FKW4); biochemical): 98.8 µM
COc1cc(Cl)c(C(=O)N[C@@H](CN[C@H]2CC[C@@H](N)CC2)Cc2ccc(C#N)cc2)cc1-c1ccc(CN[C@H](C)c2ccc(C)cc2)o1 — Kd (ATPase family AAA domain-containing protein 2, bromodomain (ATAD2, Homo sapiens, UniProt Q6PL18); microscale thermophoresis; GST-tagged protein): 0.0849 µM
C#Cc1c(F)ccc2cc(O)cc(-c3ncc4c(N5CC6CCC(C5)N6)nc(OC[C@@]56CCCN5C[C@H](F)C6)nc4c3F)c12 — Kd (GTPase HRas, GDP-bound (HRAS, Homo sapiens, UniProt P01112); binding, SPR; steady state): 3.43 ± 0.73 µM
O=C(O)CCc1nc2ncccn2n1 — Kd (USP3 ZnF-UBD domain): > 1000 µM
CC(C)C[C@H](NC(=O)[C@H](CC(C)C)NC(=O)[C@H](CC(C)C)NC(=O)[C@H](CO)NC(=O)[C@H](CCCCN)NC(=O)[C@H](CCC(N)=O)NC(=O)[C@H](CCCCN)NC(=O)[C@H](Cc1ccccc1)NC(=O)[C@H](Cc1ccccc1)NC(=O)[C@@H]1CCCN1C(=O)[C@H](CCC(=O)O)NC(=O)[C@@H](NC(=O)CNC(=O)[C@@H](NC(=O)[C@H](CO)NC(=O)[C@@H](N)CCC(N)=O)[C@@H](C)O)[C@@H](C)O)C(=O)O — Kd (DNA repair protein REV1 C-terminal domain; binding, tryptophan fluorescence quenching): 4.4 µM
COc1cc(C[C@H]2C(=O)OC[C@@H]2Cc2ccc(OC)c(OC)c2)ccc1O — Kd (PDE4D (Homo sapiens, UniProt Q08499); isothermal titration calorimetry): 1.56 µM
CC[C@H](C)[C@H](NC(=O)[C@H](CCCNC(=N)N)NC(=O)[C@H](CO)NC(=O)[C@H](Cc1ccccc1)NC(=O)[C@H](Cc1ccccc1)NC(=O)[C@H](CC(C)C)NC(=O)[C@H](C)NC(=O)CNC(=O)[C@@H]1CCCN1C(=O)[C@H](CCCNC(=N)N)NC(=O)[C@H](CC(C)C)NC(=O)[C@H](CO)NC(=O)[C@@H](N)CC(N)=O)C(=O)N[C@@H](CC(N)=O)C(=O)N[C@@H](CCCCN)C(=O)N[C@H](C(=O)N[C@@H](CO)C(=O)N1CCC[C@H]1C(=O)N[C@H](C(=O)N[C@H](C(=O)O)[C@@H](C)O)C(C)C)[C@@H](C)O — Kd (DNA repair protein REV1 C-terminal domain; binding, tryptophan fluorescence quenching): 7.9 µM
CC[C@H](C)[C@H](NC(=O)[C@H](CC(C)C)NC(=O)[C@H](Cc1ccc(OP(=O)(O)O)cc1)NC(=O)[C@H](CCC(=O)O)NC(=O)[C@H](CC(=O)O)NC(=O)[C@H](C)NC(=O)[C@H](CC(=O)O)NC(=O)[C@@H](NC(=O)[C@@H](NC(=O)[C@H](CC(=O)O)NC(=O)[C@H](CC(=O)O)NC(=O)[C@H](CCSC)NC(=O)c1ccc2c(c1)C(=O)OC21c2ccc(N(C)C)cc2Oc2cc(N(C)C)ccc21)C(C)C)C(C)C)C(=O)N1CCC[C@H]1C(=O)N[C@@H](CCC(N)=O)C(=O)N[C@@H](CCC(N)=O)C(=O)NCC(=O)N[C@@H](Cc1ccccc1)C(=O)N[C@@H](CC(=O)O)C(=O)O — Kd (Adapter molecule crk, SH2 domain (Homo sapiens, UniProt P46108); binding): 0.47 µM
O=[N+]([O-])c1ccc2nn[nH]c2c1 — Kd (HG3.17 designed enzyme (HG3-Evolved); stopped-flow tryptophan fluorescence; pH 7, 20 °C): 25 ± 5 µM
O=C(O)CNc1ccc2nncn2n1 — Kd (USP3 ZnF-UBD domain): > 1000 µM
[H]/N=C(/N)N[C@H]1[C@H](O)[C@@H](O)[C@H](O[C@@H]2O[C@@H](C)[C@](O)(C=O)[C@H]2O[C@@H]2O[C@@H](CO)[C@H](O)[C@@H](O)[C@@H]2NC)[C@@H](N/C(N)=N\[H])[C@@H]1O — Kd (de novo protein S23; binding, NMR): 650 ± 420 µM
O=C(O)CNC(=O)c1ccc(S(=O)(=O)N2CCC(n3c(=O)oc4ccccc43)CC2)cc1 — Kd (USP3 ZnF-UBD domain): 216 µM
Nc1nc2c(ncn2[C@H]2C[C@H](OP(=O)(O)OP(=O)(O)O)[C@@H](COP(=O)(O)OP(=O)(O)O)O2)c(=O)[nH]1 — Kd (speC (Escherichia coli, UniProt P21169)): 3.7 µM
O=C(O)Cc1cccnc1 — Kd (USP3 ZnF-UBD domain): 121 µM
Cc1cc2nc3c(=O)[nH]c(=O)nc-3n(C[C@H](O)[C@H](O)[C@H](O)COP(=O)(O)OP(=O)(O)OC[C@H]3O[C@@H](n4cnc5c(N)ncnc54)[C@H](O)[C@@H]3O)c2cc1C — Kd (YLP motif-containing protein 1 (YLPM1, Homo sapiens, UniProt P49750); binding, MS pulldown competition; SW-620 cell lysate): 0.08 µM
NC(=O)c1cc(-n2c(CCC(=O)O)nc3ccccc32)cs1 — Kd (USP3 ZnF-UBD domain): > 1000 µM
O=c1c(O)c(-c2ccc(O)cc2O)oc2cc(O)cc(O)c12 — Kd (Histidinol-phosphate aminotransferase (hisC, Acinetobacter baumannii, UniProt A3M2I8); surface plasmon resonance): 6.7 µM
O=C(O)CCc1cn2cccnc2n1 — Kd (USP3 ZnF-UBD domain): > 1000 µM
CN(C)c1ccc(/C=C\c2nc3ccc(OCCOCCOCCCF)cc3s2)cc1 — Kd (Amyloid-beta precursor protein, Aβ42 aggregates (APP, Homo sapiens, UniProt P05067); binding, fluorescence saturation binding; preformed amyloid-beta aggregates in PBS): 0.111 ± 0.024 µM
CCCCCCCC(=O)OC[C@H](COP(=O)(O)O[C@@H]1[C@H](O)[C@H](O)[C@@H](OP(=O)(O)O)[C@H](OP(=O)(O)O)[C@H]1O)OC(=O)CCCCCCC — Kd (Kv7.2/Kv7.3(EEE) mutant channel; channel opening, activator, model fit of open probability; model 4, K2, E2 E3 fixed to WT): 96 µM
Cc1ncsc1-c1ccc(CNC(=O)[C@@H]2C[C@@H](O)CN2C(=O)[C@@H](NC(=O)C2(F)CC2)C(C)(C)C)c(OCCOc2ccc(CN3CCN(c4cc(-c5ccccc5O)nnc4N)CC3)cc2)c1 — Kd (SWI/SNF-related matrix-associated actin-dependent regulator of chromatin subfamily A member 4, bromodomain (SMARCA4, Homo sapiens, UniProt P51532); binding, SPR; 6 °C): 2.6 µM
C=C1[C@@H](O)C[C@H]2C(C)(C)CCC[C@]2(C)[C@H]1C[C@H](O)[C@H]1CC(=O)NC1=O — Kd (ribosome, Saccharomyces cerevisiae, 80S, E site; smFRET; pH 7.5, 23 °C, 5 mM MgCl2): 85 ± 35 µM
CC1=C(/C=C/C(C)=C/C=C/C(C)=C/C=C/C=C(C)/C=C/C=C(C)/C=C/C2=C(C)CCCC2(C)C)C(C)(C)CCC1 — Kd (LGB; binding, fluorescence quenching; PBS; 30 min, 298 K): 0.00168 µM
Nc1nc2c(ncn2[C@@H]2O[C@H](COP(=O)(O)OP(=O)(O)O)[C@@H](OP(=O)(O)OP(=O)(O)O)[C@H]2O)c(=O)[nH]1 — Kd (Hypoxanthine phosphoribosyltransferase (hpt, Escherichia coli, UniProt P0A9M2); binding, ITC single-site fit): 32 ± 4 µM

A few entries again:
Nc1ncnc2c1ncn2[C@@H]1O[C@H](COP(=O)(O)OP(=O)(O)NP(=O)(O)O)[C@@H](O)[C@H]1O — Kd (Cell cycle histidine kinase CckA, CA domain (Caulobacter vibrioides, UniProt Q9X688); isothermal titration calorimetry; Caulobacter crescentus; 12 °C, together with: c-di-GMP 100 µM): 43 µM
O=C(O)CCc1ccccc1 — Kd (USP3 ZnF-UBD domain): 178 µM
CC(C)=CCC/C(C)=C/C=C/C(C)=C/C=C/C(C)=C/C=C/C=C(C)/C=C/C=C(C)/C=C/C=C(\C)CCC=C(C)C — Kd (LGB; binding, fluorescence quenching; PBS; 30 min, 298 K): 0.0147 µM
NC[C@@H]1O[C@H](O[C@H]2[C@@H](O)[C@H](O[C@@H]3[C@@H](O)[C@H](N)C[C@H](N)[C@H]3O[C@H]3O[C@H](CO)[C@@H](O)[C@H](O)[C@H]3N)O[C@@H]2CO)[C@H](N)[C@@H](O)[C@@H]1O — Kd (de novo protein S23; binding, NMR): 15 ± 14 µM
